Measurements pooled from the literature.
Protocols differ between the studies behind these lines. Values joined by “and” are separate records of one study, mostly repeats; a detail may differ. ± gives the spread as reported.

`CC#CC(=O)N1CCC[C@H]1c1nc(-c2ccc(C(=O)Nc3ccccn3)cc2)c2c(N)nccn12` has a trough concentration of 0.13 ng/mL (mouse, TMD8 tumour-bearing, plasma; 15 mg/kg twice daily, 12 h).
With `C[C@@]1(c2nc(-c3ccc(F)c4cn[nH]c34)no2)CCCN(C(=O)c2ccc(F)nc2)C1` the clearance was 29.7 mL/min/kg (C57BL/6J mice, male, plasma; intraperitoneal, 20 mg/kg).
With `O=C(Nc1cnccc1-c1ccc([18F])cc1)c1ccnc(NC(=O)C2CC2)c1` the SUV was 0.25 (FVB/NJ mice, both sexes, brain; intravenous, 15 min, median, no P-gp inhibitor).
With `CNc1cc(C)c(C(N)=O)cn1` the plasma concentration was 109000 nM (Han Wistar rats, male, plasma; oral, 30 mg/kg, 1.50 h).
`C[n+]1cccc2cc(/C=N/NC(=O)c3ccc4ccc(C(=O)N/N=C/c5ccc6c(ccc[n+]6C)c5)nc4n3)ccc21` gave a ΔTm of 0.7 ± 0.1 °C (hp2 hairpin duplex DNA; FRET melting; 1 µM, with: ds26 10 µM).
For `COc1cc(-c2nc3ccccc3s2)cc(CN2CCNCCN(Cc3cc(-c4nc5ccccc5s4)cc(OC)c3O)CC2)c1O`, the pKa3 was 6.98 (UV-vis spectrophotometric titration; aqueous NaCl 0.1 M; 20 µM, 25 °C, pH 3 to 11).
For `O=C(Nc1cnccc1-c1ccc([18F])nc1)c1ccnc(NC(=O)C2CC2)c1`, the SUV was 0.593 (FVB/NJ mice (both sexes), stomach; intravenous, dose not given, 120 min).
The delta Tm of `C[n+]1ccc(/C=N/NC(=O)c2cccc(C(=O)N/N=C/c3cc[n+](C)c4ccccc34)n2)c2ccccc21` is reported as 25.2 °C (MYC promoter parallel G-quadruplex DNA; UV melting; 3 µM, 1 mM potassium, with: DNA 3 µM).
`O=S(=O)(c1ccc(-c2ccc3ncnc(Nc4ccc(OCc5cccc(Cl)c5)c(Cl)c4)c3c2)cc1)N1CCOCC1` has an EC50 of 1100 nM (Leishmania major; intracellular amastigote growth, luciferase; RAW264.7 macrophages).
With `CC[C@H](C)[C@@H]1NC(=O)[C@H](Cc2ccc(O)cc2)NC(=O)CCCSC[C@@H](C(=O)N(CC(=O)N[C@@H](CC(C)C)C(=O)NCC(N)=O)Cc2ccc(F)cc2)NC(=O)[C@H](CC(N)=O)NC(=O)[C@H](CCC(N)=O)NC1=O` the terminal half-life was 11.4 min (human, plasma; intravenous infusion, 20 µg, 25 min infusion, mean value).
With `N#C[C@@H]1CC(F)(F)CN1C(=O)CNC(=O)c1ccnc2c(NC(=O)CCOCCOCCOCCOCCOCCOCCNC(=O)[C@H](CCCCNC(=O)CN3CCN(CC(=O)[O-])CCN(CC(=O)[O-])CCN(CC(=O)[O-])CC3)NC(=O)CCCc3ccc(I)cc3)cccc12.[177Lu+3]` the radiochemical stability was 99.23 ± 0.5% (PBS; 4 h, 37 °C, 177Lu-labelled).
`Cc1ccccc1Nc1ncnc2[nH]c(/C=C/c3ccccc3)nc12` gave a purity of 99.1% (HPLC; solution, dark; before light exposure).
`Cc1cc(-c2ccc(C(=O)[C@@H]3CCCC[C@H]3C(=O)Nc3cnn4c3C(=O)NCC4)cc2)[nH]n1` — result for “cumulative recovery of radioactivity”: 5.9% (human, urine; oral, 200 mg, 0-192 h; reference: dose).
The tumour-to-stomach ratio of `COc1cccc(OC)c1-c1cc(C(=O)NC2(C(=O)O)C3CC4CC(C3)CC2C4)nn1-c1ccc(C(=O)NCCNC(=O)[C@H](CCCCNC(=O)[C@H](CC(C)C)NC(=O)C2OC2C(=O)O)NC(=O)CN2CCN(CC(=O)[O-])CCN(CC(=O)[O-])CCN(CC(=O)[O-])CC2)cc1C(C)C.[177Lu+3]` (mixture of isomers) is reported as 27.7 (mouse HT-29 xenograft; 4 h, biodistribution; reference: tumour over stomach).
The Tmax of `COc1cc2ncnc(Oc3ccc(Nc4nccc5[nH]cc(-c6ccc(F)cc6)c(=O)c45)cc3F)c2cc1OC` is reported as 240 min (male cynomolgus monkey, plasma; oral, 3 mg/kg).
For `CC(C)(O)c1ncc([S@](N)(=O)=NC(=O)Nc2c3c(cc4c2CCC4)CCC3)s1`, “subjects with adverse events” read 86% (item: any adverse event; healthy human volunteers; oral, 50 mg twice daily, 14 days, enteric-coated tablet).
Under “subjects with adverse event”, `CN1CCC[C@]1(C)/C=C/S(=O)(=O)NC(=O)Nc1c2c(cc3c1CCC3)CCC2` is recorded as 0% (item: Constipation, possibly related; human; oral, 12.5 mg twice daily, 14 days, multiple ascending dose).
For `CCCCN1C(=O)c2cccc3c(NCCCCCCCCN4CCOCC4)ccc(c23)C1=O`, the Stokes shift was 88 nm (DMF).
`[2H]C([2H])([18F])Oc1cc(C(=O)OCC2CCN(CCCC)CC2)ccc1N` has an inhibition of 93 ± 2% (radioligand hydrolysis, esterase inhibitor; rhesus monkey whole blood; concentration not given).
`C/C(N)=N/C(=N\S(=O)(=O)c1ccc(C(F)(F)F)cc1)N1C[C@H](c2ccccc2)C(c2ccc(Cl)cc2)=N1` gave a Tmax of 120 min (Beagle dog, plasma; oral, 24 mg/kg, observed value).
Under “plasma concentration of product”, `CNc1cc(N)c(C(N)=O)c[n+]1C` is recorded as 161 nM and 159 nM (substrate, item: methylated product; rats, plasma; oral, 30 mg/kg, 0.50 h).
`C=C(NC(=O)c1csc(-c2nc3c(cc2O)-c2nc(cs2)C(=O)NC(C(C)O)C(=O)NC(=C(C)OC)c2nc(cs2)C(=O)NC2c4nc(cs4)C(=O)NC(COC(=O)c4c5c6c(cccc6n4O)COC(=O)C(OC4CC(C)(O)C(N(C)C)C(C)O4)C2OC5)c2nc-3cs2)n1)C(N)=O` (stereo not drawn) gave a Tmax of 6.6 min (female cynomolgus monkey, plasma; intravenous, 9 mg/kg, single dose, infusion).
With `OCC1OC(n2cnc3c(NCc4ccc(Br)s4)ncnc32)C(O)C1O` (stereo not drawn) the clearance was 0.4 ± 0.1 mL/min (ICR mice, male, blood; intravenous, 1 mg/kg).
`COc1ccc(/C=C/c2nc3c(Cl)ncnc3[nH]2)cc1OC` has a purity of 99.4% (HPLC; solution, dark; before light exposure).
`CCCCN1C(=O)c2cccc3c(NCCN4CCOCC4)ccc(c23)C1=O` has a Stokes shift of 77 nm (dichloromethane).
`O=C1c2sc(-c3ccc(N4CCC(F)C4)nc3F)nc2CCN1c1cccnc1` (stereo not drawn) gave a parent fraction of 0.148 (HPLC; rhesus monkey, plasma; intravenous, 59.92 min).
`N#C[C@@H]1CC(F)(F)CN1C(=O)CNC(=O)c1ccnc2c(NC(=O)C(CCCCNC(=O)CCOCCOCCOCCOCCOCCOCCNC(=O)CN3CCN(CC(=O)[O-])CCN(CC(=O)[O-])CCN(CC(=O)[O-])CC3)NC(=O)CCCc3ccc(I)cc3)cccc12.[68Ga+3]` (stereo partly drawn) has a radiochemical stability of 99.43 ± 0.9% (PBS; 30 min, 37 °C, 68Ga-labelled).
`CN1CCN(S(=O)(=O)c2ccc(-c3ccc4ncnc(Nc5ccc(Cl)cc5)c4c3)cc2)CC1` gave an EC50 of > 15000 nM (Leishmania major; intracellular amastigote growth, luciferase; RAW264.7 macrophages).
With `CC[C@H](C)[C@H](NC(=O)[C@H](Cc1ccc(O)cc1)NC(=O)[C@@H](NC(=O)[C@H](CCCNC(=N)N)NC(=O)[C@@H](N)CC(=O)O)C(C)C)C(=O)N[C@@H](Cc1c[nH]cn1)C(=O)N1CCC[C@H]1C(=O)O` the plasma concentration was 7.83 ng/mL (LC-MS/MS; Sprague-Dawley rat, both sexes, plasma; subcutaneous, 10 mg/kg/day, day 27, 0.75 h, 45 min).
With `N#C[C@@H]1CC(F)(F)CN1C(=O)CNC(=O)c1ccnc2c(NC(=O)[C@@H](N)CCCCNC(=O)CCOCCOCCOCCOCCOCCOCCNC(=O)CN3CCN(CC(=O)[O-])CCN(CC(=O)[O-])CCN(CC(=O)[O-])CC3)cccc12.[177Lu+3]` the radiochemical stability was 99.12 ± 0.8% (PBS; 1 h, 37 °C, 177Lu-labelled).
With `CCC1CNC(CC)CN(C(C(=O)[O-])c2ccc(C(=O)[O-])cc2)C(CC)CN(CC(=O)[O-])C(CC)CN1.[Mn+2]` (stereo not drawn) the Mn content was 0.3 ± 0.03 µg/g (ICP-MS; BALB/c mouse, lung; intravenous, 0.05 mmol/kg, 1440 min, without anaesthesia).
For `C=CC(=O)Nc1cc(Nc2nccc(-c3c[nH]c4ccccc34)n2)c(OC)cc1N(C)CCN(C)C`, the recovery was 89.9% (storage stability; human dried blood spots; 5 h, -80 °C, LLOQ level).
The fluorescence lifetime of `CCCCN1C(=O)c2cccc3c(NCCCCCN4CCOCC4)ccc(c23)C1=O` is reported as 10.1 ns (DMF).
For `Cc1nc(N)nc2c1C(=O)N[C@@H](c1ccc(F)cc1-c1cccc(O[11CH3])n1)C2`, the SUV was 0.3 ± 0.02 (ex vivo biodistribution; mice, MDA-MB-231 subcutaneous xenograft, plasma; 60 min post-injection, baseline, vehicle pre-treatment).
`O=S(=O)(N[C@H]1CCO[C@@H](C2c3ccccc3CCc3ccccc32)C1)c1ccc(OC(F)(F)F)cc1` has a brain/plasma ratio of 1.33 ± 0.31 (mouse; oral, 30 mg/kg, 2 h).
The Stokes shift of `CCCCN1C(=O)c2cccc3c(NCCCCN4CCOCC4)ccc(c23)C1=O` is reported as 69 nm (chloroform).
`CCCCCCCOc1ccc(CC[C@](N)(CO)COP(=O)(O)O)cc1C(F)(F)F` has a renal clearance of 0.0255 mL/min (healthy men, urine and plasma; oral, 0.75 mg once daily, day 21, fed state).
The fu of `COc1ccc2c(c1)CN(C(=O)CCN1CCC(Cc3ccccc3)CC1)CC[S+]2[O-]` (stereo not drawn) is reported as 0.268 (human plasma; 7500 ng/mL).
The tracer uptake of `[123I]c1ccc2nc(-c3ccc(-n4ccnn4)nc3)cn2c1` is reported as 0.2 %ID/g (male Wistar rat, blood; intravenous, 4 MBq, 30 min).
`CC(=O)N([O-])CCCCCNC(=O)CCC(=O)N([O-])CCCCCNC(=O)CCC(=O)N([O-])CCCCCN.[89Zr+4]` gave an intact complex of 96.7 ± 2.2% (radio-TLC; aqueous buffer; 3 d, pH 7.2, 37 °C, 89Zr-labelled complex, with: CuCl2 10-fold excess).
`CCCCN1C(=O)c2cccc3c(NCCCCCCN4CCOCC4)ccc(c23)C1=O` gave a Stokes shift of 76 nm (toluene).
`O=C([O-])CN1CCN(CC(=O)O)CCN(CC(=O)[O-])CCN(CC(=O)O)CC1.[64Cu+2]` gave a clearance half-life of 21.4 ± 1.3 min (dynamic micro-PET imaging; rat, chronic myocardial infarction, infarct fibrotic myocardium; intravenous).
`Cc1[nH]nc2c1N=C(c1ccccc1Cl)c1cnc(N3CCOCC3)cc1N2` gave a Vd of 2.35 L/kg (male beagle dog, plasma; intravenous, 1 mg/kg).
For `CCCCN1C(=O)c2cccc3c(NCCCN4CCOCC4)ccc(c23)C1=O`, “fluorescence quantum yield” read 0.29 (1,4-dioxane).
`CN(O)C(=O)CCC(=O)NCCCN(CCCCN(CCCNC(=O)CCC(=O)N(C)O)C(=O)CCC(=O)N(C)O)C(=O)CCC(=O)N(C)O.[89Zr]` has an intact complex of 99.5 ± 0.5% (radio-TLC; aqueous buffer; 7 d, pH 7.2, 37 °C, 89Zr-labelled complex, with: NiCl2 10-fold excess).
